Results pooled from the literature.
Every numbered part comes from another study and shows a few of its results, in no order. Substitutions count along the parent as printed.

Set 1
Target: CCND2, cyclin fold, Cln2 fusion (human)
Technique: yeast growth competition, sequencing
Sample: yeast
Setting: weak parent motif
Reference: not given
Direction: higher = stronger binding
Endpoint: normalised enrichment score
Starting sequence: BRCA2 docking peptide (human); CKKRRALDFLSRL; partner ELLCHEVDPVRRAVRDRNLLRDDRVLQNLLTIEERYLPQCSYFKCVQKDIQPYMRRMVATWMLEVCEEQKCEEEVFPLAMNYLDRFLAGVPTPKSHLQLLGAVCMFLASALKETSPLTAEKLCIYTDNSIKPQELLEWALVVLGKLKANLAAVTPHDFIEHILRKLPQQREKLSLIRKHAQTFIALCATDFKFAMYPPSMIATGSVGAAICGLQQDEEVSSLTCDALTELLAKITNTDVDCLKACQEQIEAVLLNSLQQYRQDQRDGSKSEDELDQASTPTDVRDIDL
CKARRALDFLSRL [K3A]: 0.263
CKKRRALDFLSRA [L13A]: 0.321
CKKRRALDALSRL [F9A]: 0.28
CKKRKALDLLSRL [R5K F9L]: 0.411
CKKRRAADFLSRL [L7A]: 0.0988
CKKRRALDFASRL [L10A]: 0.482
CKKRRALDFLARL [S11A]: 0.262
CKKRKALDFLSRL [R5K]: -0.423
CKKRAAADFLSRL [R5A L7A]: -0.0161

Set 2
Target: TAR DNA-binding protein 43, full length, His tag (TARDBP, Homo sapiens, UniProt Q13148, residues 1-414)
Technique: RNA Bind-n-Seq
Form: RNA
Sample: in vitro
Concentration: 20 nM
Setting: 6-mer, flanks averaged, single round
With: 150 mM KCl
Reference: input library
Direction: higher = stronger binding
Endpoint: 6-mer enrichment (R)
AGUAUC: 0.596
GCGGCG: 3.59
CCUGGU: 0.772
CGAUUA: 0.555
CGACCA: 0.675
CUUUGA: 0.626
AGCACC: 0.704
GGUGAG: 3.52
CCCAGA: 0.674
GCGCCU: 0.831
CAGACC: 0.666
AUAUAC: 0.587
GUUCGG: 1.38
AAAAAU: 0.859
AGGGGU: 3.73
CUACCC: 0.612
CCGAGU: 0.828

Set 3
Target: Myc proto-oncogene protein, bHLH-zipper, MAX partner unstated (MYC, Homo sapiens, UniProt P01106, residues 368-449)
Sequence of UniProt P01106 (368-449, looked up): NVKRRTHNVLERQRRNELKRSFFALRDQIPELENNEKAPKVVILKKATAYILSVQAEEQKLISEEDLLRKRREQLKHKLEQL
Technique: protein-binding microarray
Form: double-stranded DNA, one strand shown
Sample: in vitro
Concentration: not given
Setting: k-mer, scored over probes, only values ≥0.25
Direction: higher = stronger binding
Endpoint: E-score
CGTCCACG: 0.364
CACGCACA: 0.369
GTGCACGA: 0.347
CAGCCATG: 0.317
CAACATGA: 0.281
GGGCACAC: 0.3
AAACACAT: 0.308
ATGAGGGA: 0.301
ATGCGGGC: 0.309
AAGCGTGG: 0.407
GTGGGCGA: 0.291
ACCACGAC: 0.303
CGGACCAC: 0.251
AGGACATG: 0.259
CGTGCATC: 0.35

Set 4
Target: Histone acetyltransferase KAT6A, winged helix 1, GST fusion (KAT6A, Homo sapiens, UniProt Q92794, residues 1-85)
Technique: protein binding microarray
Form: double-stranded DNA, one strand shown
Sample: in vitro
Concentration: not given
Setting: 8-mer, flanks averaged, mean of 2 arrays, mostly near background
Reference: not given
Direction: higher = stronger binding
Endpoint: E-score
Construct (chain): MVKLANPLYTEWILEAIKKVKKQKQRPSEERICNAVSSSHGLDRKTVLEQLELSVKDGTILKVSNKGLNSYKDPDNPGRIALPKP
CCTCCCTA: -0.246
AGCGTTAA: 0.0882
CCACAACC: -0.0816
GGCGGAAA: 0.152
AAGTGGCT: -0.0796
AGCAACAC: -0.191
AACGAATA: -0.2
AAGGGGGA: -0.0526
CAAGACTC: -0.0505
ATAAAAGG: -0.266
AATGGTAC: 0.0132
CAGACGGC: 0.327
TGATACCA: -0.148
CGCGTTTC: 0.337
ACGATATC: -0.0767
CTTTGAAC: -0.167
CTCTCAAC: -0.0816
CTCCCGCA: 0.304
CACTCAGG: -0.111
ACTGCTAG: -0.0946
TTAACGAA: 0.0743
ATAACTGG: -0.243
CCGGTGTC: 0.234
ATATGCGA: 0.111
CGCACGGC: 0.449

Set 5
Target: RNA binding protein fox-1 homolog 2, RRM domain, GST-SBP tag (RBFOX2, Homo sapiens, UniProt O43251-10, residues 100-194)
Technique: RNA Bind-n-Seq
Form: RNA
Sample: in vitro
Concentration: 365 nM
Setting: natural RNA segment, single round, ends assumed
Reference: no-protein control
Direction: higher = stronger binding
Endpoint: RBNS enrichment (R)
Shared flanks, not repeated: GGGAGUUCUACAGUCCGACGAUC … UGGAAUUCUCGGGUGCCAA
Target sequence (chain): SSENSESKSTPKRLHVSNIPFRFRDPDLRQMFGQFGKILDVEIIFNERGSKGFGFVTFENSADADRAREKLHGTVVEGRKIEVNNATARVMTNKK
GGUUGCCUGUGGUCUCUGUCAUCCUCGUUUCUCUUCUGAAAUGAAUUUCCACCUCUGCCUUUAAGGCAUUUUUGUCACUGAAGCUGCUGUUCCCAAGAGAUCGGCAACCU: 0.332
GCAAAACUAGGUGCUGUGGCCCCAGACUACCCAUCCUUAAAAUGAUCCUUGCCCAGCGGUGGGAGCUGGGAGACAGUGCAUGGGAGGGGCUCCCUGGCAUGCCUGCCCUA: 2.22
GAAGUUGUGAAUGAAGUUGUAGCCAUUCCCUGCCCUGCACUAUAUUUUUCAGGGUGCAUUUUAAAUACUAUUGAUUCAAACAGUGGUGGCUUGCGUUUUUUUAGGUAUAU: 4.1
GCCUGCCCUUUCCUGUCCCUCCCUCGAAUUCUCUCUCCCCGUAAGUGAUGCUGGAAAAGUCAUAGGACUGGCAAAGCAACUGUUUAAACCCUUUGUAACCGGGGCCUUGC: 2.84
CUGCGAUCCUUCCCACCGUCAGCCUUUGUUUCUCAUCCUCACCUCCAAAGAUGGGAUUAUUAAUCCAACUCUAGAAAGAGUCCAAAUCUUCAGCCCGUGUCUCAUACACU: 0.503
CUUGUUCUUCGUGAUCCUGCUAUGUGAUUGGUCACAGAGUUUUAGAUUCAGGAAAGAAUGUUACCAGCUCAAAUUCCGAGGAUUUUUUUUUCCACAGCAAAGAAUAUUUG: 1.04
CCAUUAUCUUAUUUUCUUUGAUACUUUAUUUAAUUAGAUGUUUAUAAAGAAAUGGGUUUAUUUUUCCAGCAUAAACCUCAGAAUUUAAGGAAAGAAAAUGAUGUCUGUUG: 0.618
GGUGGCAGCAGUGCUCUCUCCUGCCUCCUGCGGACUCAGGUCUCUGGGGCUGCUCACUAGGCCUUGUAAUCACACAGCACAAGCAUACCUCACAGCCACCCUGAGGCUCU: 0.328
GUUACUUAUUACCCUCUUUCUCUCAAGUGCUUUAAAGAAGAAACCUCCCUGGUGUUUCUUUUCUUUUUUUUUUUGAGACGGAGUCUUGCUUUGUUGCCCAGGCUGAAGUG: 0.592
GAAGAGACCCUGAGGGAAGGGCAAGGCUUUUCCUUUUUGGCUCUGGUUCCCAGGGUCAUCCGCCUUCAACUCUGCAUGAGAUCUCCCUCCUAGAGACCAACUCUGUUUCA: 1.38
UGCAGUUUGUGCGGCAGAUUGCUCUGCCAAGAUACUUGAACACUGUGUUUUAUUGUGGUAAUUAUGUUUUGUGAUUCAAACUUCUGUGUACUGGGUGAUGCACCCAUUGU: 1.12
CAAAAGAGAACUGGUUAACCUUGAAGUGACUGUUGUACAGUGGCUGUGCACGUGCUUCAGACUCAUUUGCGAGGGAAUGCUUUCUGUAUGAGAGGGAGACGGUAGGCCUU: 0.742

Set 6
Target: Interferon regulatory factor 5, full length, phosphomimetic (IRF5, Homo sapiens, UniProt Q13568-2, residues 1-514, S451D/S453D/S456D/S462D)
Technique: protein-binding microarray
Form: double-stranded DNA, one strand shown
Sample: in vitro
Concentration: 940 nM top
Setting: 60-bp whole probe
With: salmon DNA 0.4 mg/ml
Reference: random background probes
Direction: higher = stronger binding
Endpoint: fitted relative affinity
Shared flanks, not repeated: GCCTAGCAC … GTCTTGATTCGCTTGACGCTGCTG
GACGGACTGCGTCTCGGGACGTGCTAG: -0.405 z-score
GACCGACTGGGGTATCGGGACGTGCTA: 0.9 z-score
GACGGAATCCTTTTCCTGACGTGCTAG: -0.396 z-score
GACGGTATCGGTCTTGGGACGTGCTAG: 7.6 z-score
TTAGGTATCGGTGTCGGTTAGTGCTAG: 8.4 z-score
TCCTATATCTGAACCGCAGAGTGCTAG: 0.454 z-score
TTAAGTTTCCTACTGCTTTAGTGCTAG: 1.08 z-score
GTCACATTGTGCAATCTTAATGTGCTA: 0.0075 z-score
CACTCCACCTCTGTGCTCTTGTGCTAG: 0.21 z-score
GACGCTATCGGGACTGGAGACGTGCTA: 0.187 z-score
CAATATTTGCAACATCCCAATGTGCTA: 0.659 z-score
GACGGTTTCGACCATCGGGACGTGCTA: 7.07 z-score
TCACCTTGATGTCTGGGACTGTGCTAG: -0.272 z-score
TTAGGACTGCTTCTGCTTTAGTGCTAG: -0.256 z-score
TGAGGTTTCGGGTTTCGGTTAGTGCTA: 9.2 z-score
CCGGGGGGCACAGGGTGAGGGTGCTAG: 2.25 z-score
TTAGATTTCAGTCTTGATTAGTGCTAG: 1.06 z-score
TTAGGTTTTGGGACTGGGTTAGTGCTA: 1.12 z-score
TAGTCTCTTCTGCAGCCTTTGTGCTAG: 0.948 z-score
TCAATTTTCTGAATGCCACTGTGCTAG: 0.136 z-score
CTTTACATGGGTTTTCAGCTGGTGCTA: -0.0577 z-score
GACGATATCGGGTTTCCAGACGTGCTA: 0.21 z-score

A few entries again (set 2):
CCCAGA: 0.674
CCGAGU: 0.828
CUACCC: 0.612
CCUGGU: 0.772
AAAAAU: 0.859
GCGGCG: 3.59
AGUAUC: 0.596
AGGGGU: 3.73
GUUCGG: 1.38
